{"data": "Published values from different studies", "note": "Compare with care: the assays were run in different laboratories. Several values in a cell are separate wells, animals, samples, runs or records. ± gives the spread as reported."}
{"Structure (SMILES)": "O=S(=O)(Nc1ccccc1)c1ccc(NC(=S)Nc2ccccc2)cc1", "test system": "female mice, small intestine", "conditions": "oral, 20 mg/kg daily 14 days", "scale": "reference: body weight", "measurement": "relative organ weight", "value": "2.64%"}
{"Structure (SMILES)": "COc1cc2c(Oc3ccc4[nH]c(C)cc4c3F)ccnc2cc1OCC1(N)CC1", "test system": "paediatric recurrent refractory sarcoma", "conditions": "8 mg", "measurement": "grade 1 or 2 abdominal pain", "value": "25%"}
{"Structure (SMILES)": "C[C@@H]1OC(=O)NN=C1c1ccc(-c2ccc(F)cc2)c(C(F)(F)F)c1", "assay": "phase I trial, item: Anaemia all grades", "test system": "human patients", "conditions": "10 mg loading then 0.5 mg daily", "measurement": "patients with adverse event", "value": "0%"}
{"Structure (SMILES)": "COc1ncnn2ccc(-c3cnc4nc(C)n(Cc5nnc([C@@H](C)F)o5)c4c3)c12", "test system": "human patients", "conditions": "oral, dose not given, grade 1 adverse drug reaction", "measurement": "incidence of Stomatitis", "value": "21.4%"}
{"Structure (SMILES)": "COc1ccc(-c2c(-c3ccc(C#N)c(F)c3)nc(N3CCC(N)CC3)n(C)c2=O)cc1F", "assay": "item: decreased appetite", "test system": "human patients", "conditions": "oral, dose not given, dose escalation", "measurement": "grade 3-4 TRAE incidence", "value": "0%"}
{"Structure (SMILES)": "CN1CC[C@@H](c2c(O)cc(O)c3c(=O)cc(-c4ccc(C(F)(F)F)cc4Cl)oc23)[C@@H]1CO", "assay": "item: Sepsis", "test system": "AML", "conditions": "oral, 200 mg, intermittent dosing", "measurement": "patients with adverse event", "value": "20%"}
{"Structure (SMILES)": "CC(C)C(=O)OC[C@H]1O[C@@H](n2ccc(NO)nc2=O)[C@H](O)[C@@H]1O", "test system": "rat maternal blood dialysate", "conditions": "250 ng/mL, 6 h, 10 °C, high QC concentration, together with: NHC 1000 ng/mL", "measurement": "autosampler stability", "value": "104 ± 2.08%"}
{"Structure (SMILES)": "CCc1ccc(CC/C=C/c2ccc3c(c2)C(=O)CC3)cc1", "test system": "Sprague-Dawley rat, male", "conditions": "oral, 120 mg/kg/day, 14 days", "measurement": "LDH serum activity", "value": "505 U/L"}
{"Structure (SMILES)": "Cn1c(-c2ccc(C(N)=O)cc2F)nnc1C(C)(C)Oc1c(F)cc(Cl)cc1F", "test system": "human", "conditions": "oral, 10 mg, single ascending dose", "measurement": "medical device site reaction TEAE", "value": "0%"}
{"Structure (SMILES)": "CC(C)(c1ccccc1)c1cc(-n2nc3ccccc3n2)c(O)c(C(C)(C)c2ccccc2)c1", "assay": "exposure assessment", "test system": "human, age 11-16 years", "conditions": "sunscreen", "measurement": "mean daily dermal uptake", "value": "0.42 ng/kg body weight/day"}
{"Structure (SMILES)": "CC[C@H](C)[C@H](NC(=O)[C@H](Cc1ccccc1)NC(=O)[C@H](CCC(=O)O)NC(=O)[C@H](CCCNC(=N)N)NC(=O)[C@H](C)NC(=O)[C@H](C)NC(=O)[C@H](CCC(N)=O)NC(=O)[C@H](CCC(=O)O)NC(=O)[C@H](CCC(=O)O)NC(=O)[C@H](CC(C)C)NC(=O)[C@H](Cc1ccc(O)cc1)NC(=O)[C@H](CO)NC(=O)[C@H](CO)NC(=O)[C@@H](NC(=O)[C@H](CC(=O)O)NC(=O)[C@H](CO)NC(=O)[C@@H](NC(=O)[C@H](Cc1ccccc1)NC(=O)[C@@H](NC(=O)CNC(=O)[C@H](CCC(=O)O)NC(=O)[C@H](C)NC(=O)CCc1cnc[nH]1)[C@@H](C)O)[C@@H](C)O)C(C)C)C(=O)N[C@@H](C)C(=O)N[C@@H](Cc1c[nH]c2ccccc12)C(=O)N[C@@H](CC(C)C)C(=O)N[C@H](C(=O)N[C@@H](CCCNC(=N)N)C(=O)NCC(=O)N[C@@H](CCCNC(=N)N)C(=O)N[C@@H](CCCCNC(=O)COCCOCCNC(=O)COCCOCCNC(=O)CC[C@H](NC(=O)CCCCCCCCCCCCCCCCC(=O)O)C(=O)O)C(=O)NCC(=O)NCC(=O)N[C@@H](CO)C(=O)N[C@@H](CCCCNC(=O)[C@H](CCCCNc1c(NCCCCCN(O)C(=O)CCC(=O)NCCCCCN(O)C(=O)CCC(=O)NCCCCCN(O)C(C)=O)c(=O)c1=O)Nc1c(NCCCCCN(O)C(=O)CCC(=O)NCCCCCN(O)C(=O)CCC(=O)NCCCCCN(O)C(C)=O)c(=O)c1=O)C(=O)O)C(C)C [zirconium-89 labelled]", "assay": "ex vivo gamma counting", "test system": "Sprague-Dawley rat, male, liver", "conditions": "intravenous, 1 nmol, 24 h", "measurement": "tissue uptake", "value": "1.76 %ID/g and 1.86 %ID/g and 1.95 %ID/g and 1.52 %ID/g and 1.66 %ID/g"}
{"Structure (SMILES)": "C[C@]1(CO)Cc2ncn(-c3ccc(C#N)c(Cl)c3)c2C(=O)O1", "test system": "human", "conditions": "oral, 10 mg, fed, single dose, median", "measurement": "Tmax", "value": "2 h"}
{"Structure (SMILES)": "O=C1Nc2cc3[nH]nc(-c4ccncc4)c3cc2CN1Cc1ccccc1", "assay": "CTCAE v4.03", "test system": "advanced solid tumour patients", "conditions": "intravenous, 0.45 mg/kg, schedules 1/2", "measurement": "patients with back pain", "value": "100%"}
{"note": "Some of these lines once more:"}
{"Structure (SMILES)": "CC[C@H](C)[C@H](NC(=O)[C@H](Cc1ccccc1)NC(=O)[C@H](CCC(=O)O)NC(=O)[C@H](CCCNC(=N)N)NC(=O)[C@H](C)NC(=O)[C@H](C)NC(=O)[C@H](CCC(N)=O)NC(=O)[C@H](CCC(=O)O)NC(=O)[C@H](CCC(=O)O)NC(=O)[C@H](CC(C)C)NC(=O)[C@H](Cc1ccc(O)cc1)NC(=O)[C@H](CO)NC(=O)[C@H](CO)NC(=O)[C@@H](NC(=O)[C@H](CC(=O)O)NC(=O)[C@H](CO)NC(=O)[C@@H](NC(=O)[C@H](Cc1ccccc1)NC(=O)[C@@H](NC(=O)CNC(=O)[C@H](CCC(=O)O)NC(=O)[C@H](C)NC(=O)CCc1cnc[nH]1)[C@@H](C)O)[C@@H](C)O)C(C)C)C(=O)N[C@@H](C)C(=O)N[C@@H](Cc1c[nH]c2ccccc12)C(=O)N[C@@H](CC(C)C)C(=O)N[C@H](C(=O)N[C@@H](CCCNC(=N)N)C(=O)NCC(=O)N[C@@H](CCCNC(=N)N)C(=O)N[C@@H](CCCCNC(=O)COCCOCCNC(=O)COCCOCCNC(=O)CC[C@H](NC(=O)CCCCCCCCCCCCCCCCC(=O)O)C(=O)O)C(=O)NCC(=O)NCC(=O)N[C@@H](CO)C(=O)N[C@@H](CCCCNC(=O)[C@H](CCCCNc1c(NCCCCCN(O)C(=O)CCC(=O)NCCCCCN(O)C(=O)CCC(=O)NCCCCCN(O)C(C)=O)c(=O)c1=O)Nc1c(NCCCCCN(O)C(=O)CCC(=O)NCCCCCN(O)C(=O)CCC(=O)NCCCCCN(O)C(C)=O)c(=O)c1=O)C(=O)O)C(C)C [zirconium-89 labelled]", "assay": "ex vivo gamma counting", "test system": "Sprague-Dawley rat, male, liver", "conditions": "intravenous, 1 nmol, 24 h", "measurement": "tissue uptake", "value": "1.76 %ID/g and 1.86 %ID/g and 1.95 %ID/g and 1.52 %ID/g and 1.66 %ID/g"}
